Results gathered from unrelated publications.
Numbered parts are unrelated; each lists some results of a single study.

Study 1 — technique: aptamer microarray, sandwich; molecule type: DNA with 2'F-ANA; sample: in vitro; tested at: 200 nM; added: Cy3 exosite-II aptamer, 400 nM; direction: higher = stronger binding; quantity: mean fluorescence intensity; oligonucleotide: GGTTGGTGTGGTTGG
Target: Prothrombin, mature alpha-thrombin (F2, Homo sapiens, UniProt P00734)
Notes: whole 15-mer aptamer, many near background
2'F-ANA at 2 3 4 6 8 13 15: 375 a.u.
2'F-ANA at 1 3 4 6 8 10 11 12 13 14 15: 48.5 a.u.
2'F-ANA at 3 5 6 7 12 14 15: 62.8 a.u.
2'F-ANA at 1 2 4 5 7 9 10 14 15: 43.4 a.u.
2'F-ANA at 1 7 12 15: 503 a.u.
2'F-ANA at 1 2 6 11 12 13 15: 234 a.u.
2'F-ANA at 1 5 7 8 11: 71.6 a.u.
2'F-ANA at 3 4 6 7 9 11 12 14: 250 a.u.
2'F-ANA at 2 3 4 7 8 13 14: 351 a.u.
2'F-ANA at 3 6 7 9 12 13 15: 953 a.u.
2'F-ANA at 1 2 7 10 11 12: 60 a.u.
2'F-ANA at 5 6 7 9 12 14 15: 49.7 a.u.
2'F-ANA at 1 3 5 6 11 12 15: 90.8 a.u.
2'F-ANA at 3 5 6 7 8 11 12 13: 271 a.u.
2'F-ANA at 4 5 8 9 11 12 13 14 15: 76.5 a.u.
2'F-ANA at 1 5 7 8 10 11 12 13 15: 50.3 a.u.
2'F-ANA at 2 5 6 11 12 13: 94.6 a.u.
2'F-ANA at 2 3 4 6 7 8 9 10 11 12 13: 201 a.u.
2'F-ANA at 1 3 5 6 8 13 14: 45.5 a.u.
2'F-ANA at 3 4 5 6 9 10 12 15: 58.4 a.u.

Study 2 — technique: protein-binding microarray; molecule type: double-stranded DNA, one strand shown; sample: in vitro; tested at: 940 nM top; notes: 60-bp whole probe; added: salmon DNA 0.4 mg/ml; reference: random background probes; direction: higher = stronger binding; quantity: fitted relative affinity; all sequences stand within: GCCTAGCAC … GTCTTGATTCGCTTGACGCTGCTG
Target: Interferon regulatory factor 5, full length, phosphomimetic (IRF5, Homo sapiens, UniProt Q13568-2, residues 1-514, S451D/S453D/S456D/S462D)
TTATGTTTCGGGTTTCGGTTAGTGCTA: 8.6 z-score
GACTAACTGGGGTATCGAGACGTGCTA: 1.32 z-score
TTAGTTTCCAGTTTCGATTAGTGCTAG: 9.78 z-score
ACCCGAGTCCCTATCTCCTCGTGCTAG: 0.0159 z-score
TTAGATTTCAATCTCGATTAGTGCTAG: 1.23 z-score
GACGATTTCGGTTCCGAGACGTGCTAG: 2.01 z-score
AGCCGAACAGCAATCGGATGGTGCTAG: -0.448 z-score
TGGGAAATTCCTCTGAGGCAGTGCTAG: -0.548 z-score
GAAGATGTGTATATGACAATGTGCTAG: -0.286 z-score
GACGGTATCGGGACTGGGGAAGTGCTA: 3.37 z-score
TCAAGCCTCTGCATTCCCACTGTGCTA: -0.0712 z-score
TCAAGTAGCTTTCTGAGACTGTGCTAG: 0.0331 z-score
TTTGAACTGAGTATCGATTAGTGCTAG: 5.01 z-score

Study 3 — technique: protein-binding microarray; molecule type: double-stranded DNA, one strand shown; sample: in vitro; tested at: not given; direction: higher = stronger binding; quantity: E-score
Target: Max-binding protein MNT, bHLH-zipper, MAX partner unstated (MNT, Homo sapiens, UniProt Q99583, residues 220-300)
Notes: k-mer, scored over probes, only values ≥0.25
Target sequence (chain): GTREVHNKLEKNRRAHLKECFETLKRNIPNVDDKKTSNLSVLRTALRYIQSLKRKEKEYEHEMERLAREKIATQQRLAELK
CCACGTCG: 0.284
CAACGAGG: 0.277
CCGAGGAA: 0.255
CATGCGAC: 0.405
CCACACCA: 0.284
ATGTGAGG: 0.256
CAGTCACA: 0.256
GCCGCACC: 0.308
GCCCGCCC: 0.338
CGTGGTCA: 0.36
GCGTGCAC: 0.422
ATGCGGCA: 0.348
CCACGCGG: 0.49
CACCATGA: 0.252
AAACGTGG: 0.426
CACGCGCG: 0.422
CGGGCACG: 0.288
ATCATGCG: 0.335
AGCGTGTG: 0.357
AGGGCATG: 0.323

Study 4 — technique: RNA Bind-n-Seq; molecule type: RNA; sample: in vitro; tested at: not given; reference: input RNA pool; direction: higher = stronger binding; quantity: bound/input enrichment
Target: RING finger protein unkempt homolog, zinc fingers 1-6, GST-SBP tag (UNK, Homo sapiens, UniProt Q9C0B0, residues 30-357)
UniProt Q9C0B0, sequence (30-357, looked up): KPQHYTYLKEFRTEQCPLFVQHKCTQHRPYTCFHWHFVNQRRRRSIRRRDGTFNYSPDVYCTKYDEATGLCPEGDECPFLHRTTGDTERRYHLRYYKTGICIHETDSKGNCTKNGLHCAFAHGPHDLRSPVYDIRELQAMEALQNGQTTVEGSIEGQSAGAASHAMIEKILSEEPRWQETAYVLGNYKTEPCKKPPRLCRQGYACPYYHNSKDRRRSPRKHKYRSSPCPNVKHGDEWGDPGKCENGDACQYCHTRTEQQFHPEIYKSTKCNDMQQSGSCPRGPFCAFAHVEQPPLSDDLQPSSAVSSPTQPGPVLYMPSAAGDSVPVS
Notes: RNA with constant flanks, human-mouse chimeric sites, ends assumed
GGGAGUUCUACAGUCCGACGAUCCGCUGGCCCAAGCUGAUGGACUCUGAUCUUGAUCUCUAAGGUAUUAUGUGUGCCUUCUCUUAGUCCCUGUUUUCGGGAUGUUAUGAAUCUCAGUACUGUGGUUUGAAAGCACCAGCUUUGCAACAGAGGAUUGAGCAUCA: 0.171 ratio
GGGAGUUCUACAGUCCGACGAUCUUGCUACUGACUCCCUGGGUCAAGUUCCUGUGGGAGUCAUACAGGCAGUGUUUGGACCUUCUUCGAAACAAUUCUAGAGUAGAGCGCCUUUACCAUGAUAUCGCCCAACAAGCUUUCAAACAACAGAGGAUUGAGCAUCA: 0.14 ratio
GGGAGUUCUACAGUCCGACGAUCAAAGUGGACUAUGGCGAGUACAUGGAUAAAAAUAAUGUGAGGCGGCAAGCAACAACAAUCAUAGCUGAUAACAUUAUAUUUCUGAGUGACCAGACAAAAGAAAAGGCGUAGAAAGGAUGACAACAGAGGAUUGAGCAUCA: 1.5 ratio
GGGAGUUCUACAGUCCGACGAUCUUGGAAGGACCAGAGCCCAGUCAGCUCAAACCAUUAGUCAUACAGGCUAUGCCCACCCUAAUAGAAUUAAUGAAAGACCCCAGUGUAGUUGUUCGAGACACAACAGCGUGGACUGUGGGCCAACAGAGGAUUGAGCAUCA: 3.28 ratio
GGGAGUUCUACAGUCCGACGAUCUACUCAACUUUCUUGCCACAUUUUGAAUUCCAAGAUGUUAUUCCUCCAGAUGACUUCCUAACGAGUGAUGAAGAGCAAGAUUCCGUUUUAUUUGGAACUAUGAGAGGACAAGUUGUUGGACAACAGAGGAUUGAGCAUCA: 0.166 ratio
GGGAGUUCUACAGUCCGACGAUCUACAUUUUAUUGUUGAGUUUCAUUUUCUUGUAUGUUUGUAGUGUCUGCUUGCCUGUGACUUCUGGUAAAAUAAAAUAAGCCUUUGAAAAUAUUUUAGCAUGGUAUUUAACAUUUUCUAAACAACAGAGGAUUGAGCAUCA: 1.75 ratio
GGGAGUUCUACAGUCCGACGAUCCUCAUGGCUGCAGAAACAGGAAGUGGCAAAACUGGUGCAUUUAGUAUUCCAGUUAUCCAGAUAGUGUAUGAAACUCUGAAAGACCAACAGGAAGGAAAGAAAGGGAAAACAACUAUUAAACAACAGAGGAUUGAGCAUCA: 0.505 ratio
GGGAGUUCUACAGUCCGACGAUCAAAGAGAAACUAAAGCAACUAAUAGAGAAGAGGAUUGGCAAAGAGAAAUUUCAUAGAAAACUAGGAUUUAUUAGCAAACAUGAGUUAGUAUUCCAGACGUCUCAGAAACCCCAGCCAAACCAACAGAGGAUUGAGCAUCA: 7.66 ratio
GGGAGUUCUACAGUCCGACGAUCCACGUGUCUGCAGUACUUGAUGUGGACUACUCUCCCACUGGGAAGGAGUUUGUGUCUGCCAGCUUUGAUAAGUCUAUUAGAAUCUUUCCUGUAGACAAGAGCCGAAGCAGGGAAGUGUAUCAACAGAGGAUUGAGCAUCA: 0.266 ratio
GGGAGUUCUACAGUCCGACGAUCCUCAUGGCUGCAGAAACAGGAAGUGGAAAAACUGGUGCAUUUAGUAUUCCAGUUAUCCAGAUAGUGUAUGAAACUCUGAAAGACCAACAGGAAGGCAAGAAAGGGAAAACAACUAUUAAACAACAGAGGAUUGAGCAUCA: 0.455 ratio

Study 5 — technique: RNA Bind-n-Seq; molecule type: RNA; sample: in vitro; tested at: 365 nM; reference: no-protein control; direction: higher = stronger binding; quantity: RBNS enrichment (R)
Target: RNA binding protein fox-1 homolog 2, RRM domain, GST-SBP tag (RBFOX2, Homo sapiens, UniProt O43251-10, residues 100-194)
Notes: natural RNA segment, single round, ends assumed
Target sequence (chain): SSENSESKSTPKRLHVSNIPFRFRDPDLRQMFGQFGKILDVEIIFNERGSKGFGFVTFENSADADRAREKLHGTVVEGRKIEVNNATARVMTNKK
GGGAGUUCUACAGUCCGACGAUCCUGAUCCCAGGAGGCCCUGCAGUUCCCCCGACCCGCGGAUGGCAGUCUGGAAUAAAGCCCCCUAGUUGCCUUUGGCCCCACCUUUGCAAAGUUCCAGAGGGCUGACCCUCUGGAAUUCUCGGGUGCCAA: 0.22
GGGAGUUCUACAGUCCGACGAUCACAGACAGGUGGAACUGCCAGUGUAAGGGAAUUCUAAGGUGGACGCACAGAACAGUCUCUCCGUGGGAGGAGACAUUAUGGGGCGUCCACCACCACCCCUCCCUGGCCAUUGGAAUUCUCGGGUGCCAA: 0.324
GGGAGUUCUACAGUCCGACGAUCUAAUAAGUUGCCUGUUCCAGAAGUCUAACCCUAACCCCUCUGGUUGUCUGGGACCCCUUUCUGUGCAUGGGUGCAAUGAUUUAGCCAUGGCUGUGGGCUAUCUGGGUACAUGGAAUUCUCGGGUGCCAA: 1
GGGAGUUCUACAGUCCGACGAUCUUUUCUCUAAAUUUUGCCUCUAGGAAAAAAUUAAAACUAUUCAAUGACAGCUAGCUGUCACUGGUGCUACCCCAAAGCUUUCCAAUCUUUUAUGUAUUUUUUGUGAAUGAUGGAAUUCUCGGGUGCCAA: 0.997
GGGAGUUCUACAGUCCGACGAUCGGGAGUAUUACGUGUAAACAUGCGAACACUGCUCACACGCGAGUUUUCACAGUUAUUUCUAUCCACGCCUAUGAAUCUUUGGACGGUGAGAUCUCACAGAUGUCAGAACUUGGAAUUCUCGGGUGCCAA: 0.535
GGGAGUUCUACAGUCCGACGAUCAGAAAUAGUGUUGGGAGGGAACCUGUCUAGUAACAGAGCUAGCAAAUGUCCAGGCUGGUGAAGAUCCGCUGAGCAAGAGCCCUGGUGUGGGGAAAGGGAGGUCAGAGUACUGGAAUUCUCGGGUGCCAA: 1.23
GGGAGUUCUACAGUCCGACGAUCACUCAACAUACUGCCUUCUAAGCUUCCCUUUUUUUGUUCAAAGCAUGAUCUUAAAGAUAUGUUUAAGUUAAUGGAUGUAAUGCAGGGUUCCUACACUGUAUUUUGGCGCAUGGAAUUCUCGGGUGCCAA: 2.37
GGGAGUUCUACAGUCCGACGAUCUUUUCUUGAGCUAAAGACAGGCUUUUUCCACCGGCAUCAUCACUGCUAUCAUCAUUAACAGCGUAAUUAUACAAGCAUAUUUAAUGCUGAGUUUAAUUUAAUAUGUAAUAUGGAAUUCUCGGGUGCCAA: 0.279
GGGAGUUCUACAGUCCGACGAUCUGUCCUUCAACCAUAUCCUGCAACUUCUCAAACUGUACUAAAUUGAUAUUUCUUGAAGUCUAACUCUGUGCUAACAGAUCUUCAUUUUAAAUAGAAUACGGUUUUAAUUUUGGAAUUCUCGGGUGCCAA: 0.322
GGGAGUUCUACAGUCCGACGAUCCCCAUAACAUGGUGUGAGGACGGACUGGGAGCCGGUACAGACUCCAGUGUUUACAGCCUUGCUUUCCUCCCACCGACCCUGGCCCCAGGCUGCCCCGGGCCUGGCGGGCCUGGAAUUCUCGGGUGCCAA: 0.249
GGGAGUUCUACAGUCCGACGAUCCCAAGCAGGGCCUGCCCUGACAGUUCCACUUUACUCCCAUAUUCUCCCCGUGCUCCUGGCGAGCCUGAGCUUGCCACCCGGUUCUCCCUGCCCGACUCCAGCUGCCCAAGUGGAAUUCUCGGGUGCCAA: 0.618
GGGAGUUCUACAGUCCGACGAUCUCCUAUUGCUUCCUUGCGCAACUUCUCAAAACGAUGAAAGUCAGAAGGCUGUCAAACUCAAAUAUCUUUGCAAACAGUUUGAAUACUGUGAAUUCAUUACGAAGAAUGUUUGGAAUUCUCGGGUGCCAA: 0.452

A few entries again (study 3):
GCCGCACC: 0.308
GCCCGCCC: 0.338
CGTGGTCA: 0.36
GCGTGCAC: 0.422
ATGCGGCA: 0.348
CCACGCGG: 0.49
CACCATGA: 0.252
AAACGTGG: 0.426
CACGCGCG: 0.422
CGGGCACG: 0.288
